Experimental data of several laboratories.
Parts stem from different laboratories: compare values within a part only. Positions count from the first letter of the parent shown.

Set 1 — technique: protein-binding microarray; molecule type: double-stranded DNA, one strand shown; medium: in vitro; concentration: 2200 nM top; notes: 60-bp whole probe; together with: salmon DNA 0.4 mg/ml; relative to: random background probes; direction: higher = stronger binding; quantity: fitted relative affinity; constant ends, left off below: GCCTAGCAC … GTCTTGATTCGCTTGACGCTGCTG
Target: Interferon regulatory factor 7, full length, phosphomimetic (IRF7, Homo sapiens, UniProt Q92985, residues 1-503, S471D/S472D/S475D/S476D/S477D/S483D/S484D/S487D)
Residues (chain): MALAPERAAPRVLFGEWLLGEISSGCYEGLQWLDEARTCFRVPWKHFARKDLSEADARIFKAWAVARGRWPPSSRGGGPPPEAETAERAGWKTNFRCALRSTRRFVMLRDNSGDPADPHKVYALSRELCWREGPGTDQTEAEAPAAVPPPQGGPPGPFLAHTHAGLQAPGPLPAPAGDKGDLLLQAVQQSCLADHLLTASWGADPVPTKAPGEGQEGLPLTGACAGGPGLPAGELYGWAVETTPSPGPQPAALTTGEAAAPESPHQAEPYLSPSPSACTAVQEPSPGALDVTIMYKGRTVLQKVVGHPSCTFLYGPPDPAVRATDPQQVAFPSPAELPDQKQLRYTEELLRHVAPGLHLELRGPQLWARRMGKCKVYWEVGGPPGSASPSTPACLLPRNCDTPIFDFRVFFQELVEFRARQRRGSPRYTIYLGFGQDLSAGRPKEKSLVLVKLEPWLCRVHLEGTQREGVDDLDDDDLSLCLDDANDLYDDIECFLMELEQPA
CTATAAAGCATCAGGAAAGCGTGCTAG: -0.661 z-score
TCTGGGCCTCCATCATCTGTGTGCTAG: -0.394 z-score
GACGAACTCGGGACTGGAGACGTGCTA: -0.431 z-score
TTAGGTCTCCTTCTCCGTTAGTGCTAG: 0.937 z-score
TTAGAACTGAGACTGGATTAGTGCTAG: -0.652 z-score
GACGGTTTCGACCCTGGGGACGTGCTA: 2.64 z-score
GACGGTTTAGGTTTCGGGACGTGCTAG: 3.37 z-score
TTAGGTTTCGGGTATCGTTTAGTGCTA: 5.92 z-score
GACGATGTCGGGTATCGAGACGTGCTA: -0.392 z-score
GAAACACTAATTTTTACTTTGTGCTAG: 0.758 z-score
TTAGGTATCGACTCTGGGTTAGTGCTA: 0.455 z-score
TTAGGTTTCGGTATCGTTTAGTGCTAG: 7.3 z-score
TCACAATTCTCTTTTCAACTGTGCTAG: 1.48 z-score
TCATTCTTGGGACTCACACTGTGCTAG: 1.01 z-score
ACTCGTTTACATTTTCCAAAGTGCTAG: 3.05 z-score
GTCGATCTCAGACTGGAGACGTGCTAG: 0.287 z-score
TTAGGACTGGGACCGGGTTAGTGCTAG: -0.86 z-score
CGAGGTCTCGCTATGTTGTCGTGCTAG: 0.744 z-score

Set 2 — technique: DHFR PCA, deep sequencing; medium: yeast; together with: (+)-ABA 2500 µM; relative to: wild-type fitted maximum; direction: higher = stronger binding; quantity: relative binding score
Target: ABI1, truncated, D143A, DHFR fusion (Arabidopsis thaliana)
Notes: methotrexate growth selection, single substitutions
Starting sequence: PYL1, truncated, DHFR fusion (Arabidopsis thaliana); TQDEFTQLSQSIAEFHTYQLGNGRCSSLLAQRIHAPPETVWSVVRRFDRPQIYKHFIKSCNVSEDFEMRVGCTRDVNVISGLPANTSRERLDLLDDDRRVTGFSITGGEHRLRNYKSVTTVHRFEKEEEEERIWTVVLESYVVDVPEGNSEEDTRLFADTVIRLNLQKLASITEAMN; partner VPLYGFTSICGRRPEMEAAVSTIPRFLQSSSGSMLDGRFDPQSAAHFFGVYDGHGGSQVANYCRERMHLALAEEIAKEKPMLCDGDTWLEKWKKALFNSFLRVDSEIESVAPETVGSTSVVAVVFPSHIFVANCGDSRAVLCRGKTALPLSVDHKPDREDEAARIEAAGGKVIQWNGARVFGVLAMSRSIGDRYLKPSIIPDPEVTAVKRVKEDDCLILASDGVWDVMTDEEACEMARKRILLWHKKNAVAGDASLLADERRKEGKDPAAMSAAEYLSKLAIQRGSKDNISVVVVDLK
G148T: 91.2%
S80F: 87.6%
I57R: -3.32%
P37F: 71.1%
T160V: 91.4%
L20Q: 96.6%
T86Q: 89.1%
G23H: 95.1%
F47W: 89%
E129R: 99.9%
F124L: 106%
C60I: 96%
Q10E: 113%
V145M: 95.4%
T173I: 99%
S27W: 71.8%
D75F: 93.1%
E130D: 100%
F66M: 96.4%
V143A: 90%
F157S: 12.3%
T154E: 23.2%
E14R: 94.5%

Set 3 — target: CCNA1, cyclin fold, Cln2 fusion (human); technique: yeast growth competition, sequencing; medium: yeast; notes: weak parent motif; relative to: not given; direction: higher = stronger binding; quantity: normalised enrichment score
Starting sequence: CDC25A docking peptide (human); PPHRRRLLFACSP; partner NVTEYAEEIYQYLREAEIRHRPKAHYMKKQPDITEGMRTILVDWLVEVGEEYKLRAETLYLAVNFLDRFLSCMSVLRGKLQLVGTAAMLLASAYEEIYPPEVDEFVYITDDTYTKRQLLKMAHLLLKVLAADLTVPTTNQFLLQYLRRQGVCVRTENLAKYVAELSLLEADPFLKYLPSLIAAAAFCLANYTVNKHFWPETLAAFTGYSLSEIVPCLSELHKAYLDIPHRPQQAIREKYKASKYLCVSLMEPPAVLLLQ
PPHRMRLLFACSP [R5M]: 0.241
PDHRRRLLFACSP [P2D]: 0.154
PPHRRCLLFACSP [R6C]: -0.00194
PPHRRRLLFAWSP [C11W]: -0.0452
PPHRRSLLFACSP [R6S]: 0.312
PPHRRALLFACSP [R6A]: 0.26
EPHRRRLLFACSP [P1E]: 0.131
PPHRRRLYFACSP [L8Y]: 0.335
PPHRRRLLFACDP [S12D]: 0.321
PPHRRFLLFACSP [R6F]: -0.396
PPHRRRLNFACSP [L8N]: 0.352
NPHRRRLLFACSP [P1N]: 0.4
PPCRRRLLFACSP [H3C]: 0.516
PPHRRRLLFACSV [P13V]: 0.312
PPHRRRLLFCCSP [A10C]: 0.117
PPLRRRLLFACSP [H3L]: 0.259
LPHRRRLLFACSP [P1L]: 0.292
PPHRLRLLFACSP [R5L]: 0.364
PPHRRRLLFACTP [S12T]: 0.0966
PKHRRRLLFACSP [P2K]: 0.271
PPHDRRLLFACSP [R4D]: 0.328
PPHRRRYLFACSP [L7Y]: 0.144
PPHRRRLLCACSP [F9C]: 0.219
PPHRRRLEFACSP [L8E]: 0.383

Set 4 — technique: RNA Bind-n-Seq; molecule type: RNA; medium: in vitro; concentration: not given; relative to: input RNA pool; direction: higher = stronger binding; quantity: bound/input enrichment
Target: RING finger protein unkempt homolog, zinc fingers 1-6, GST-SBP tag (UNK, Homo sapiens, UniProt Q9C0B0, residues 30-357)
Sequence of UniProt Q9C0B0 (30-357, looked up): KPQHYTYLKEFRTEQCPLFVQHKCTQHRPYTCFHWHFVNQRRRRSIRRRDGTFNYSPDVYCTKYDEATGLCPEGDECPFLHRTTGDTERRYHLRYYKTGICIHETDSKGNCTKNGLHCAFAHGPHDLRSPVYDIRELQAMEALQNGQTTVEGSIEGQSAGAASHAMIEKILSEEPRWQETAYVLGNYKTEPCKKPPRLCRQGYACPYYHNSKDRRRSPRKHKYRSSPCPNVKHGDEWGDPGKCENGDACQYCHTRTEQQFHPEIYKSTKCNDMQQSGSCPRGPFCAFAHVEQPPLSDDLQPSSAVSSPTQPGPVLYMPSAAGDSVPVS
Notes: RNA with constant flanks, human-mouse chimeric sites, ends assumed
Constant ends, left off below: GGGAGUUCUACAGUCCGACGAUC … CAACAGAGGAUUGAGCAUCA
GCCACCAGAUCCCAGAAACAUGACCCUUGCUGCCUACAAAGAGAAGAUGAAGGAACUCCCACUAGUGUCCUUGUUCUGCUCCUGCUUCCUGGCCGAUCCCCUGAAUAAGUCGUCCUACAA: 1.22 ratio
CACAGAGGAGAUCUGCUGUUCCUCACAAAUUUCCGGGAGGACCCCAUCAGAGCUGGUGAAAUAGUUGUUUUUAAGGUUGAAGGAAGAGACAUUCCGAUAGUUCACAGAGUAAUCAAAGUU: 3.38 ratio
CAACCUCAGAGCCCAGACUUCCUGGAUAUUACCAACCCUAAAGCGGUAUUAGAAAACGCAUUGAGAAACUUCGCCUGUCUGACGACUGGAGAUGUGAUUGCUAUCAACUACAAUGAGAAG: 0.292 ratio
CGCUGGCGUUGAACUGUGUAAAUGUUUGGCCUCCAUCUCUCAGGCACGUGUGCCUUCUCUUAGUCCCUGUUUUCGGGAUGUUAUGAAUCUCAGUACUGUGGUUUGAAAGCACCAGCUUUG: 0.231 ratio
UCAACAGACAACAUCAAAUACCAGCCUAAAGGGGGGCAGGUACAAAUUGUUACUAAGAAGAUAGACUUAAGCCAUGUGACAUCCAAAUGUGGCUCUCUGAAGAACAUCCGCCACAGGCCA: 0.174 ratio
UUUGUAUUUAUGCUAAGCACGCGUGCUGGUGGUCUGGGCAUCAAUCUUGCGACUGCUGAUGUAGUCAUUUUAUAUGACUCAGAUUGGAAUCCGCAAGUUGAUCUUCAGGCUAUGGACCGU: 0.113 ratio
AAAUCGUGUGUGUCCAAUAUUGAAAGUGCUUUAUCUACACUCCAGUAUGUAAGCAGUAUAGUAGUUUCUUUAGAGAAUAGGUCUGCCAUUGUAAAGUACAAUGCAAGCUUAGUCACUCCA: 1.74 ratio
AGUGUGCAGGAAUUCAUGACCUUUACAAGUCAACUGAUUGUGGAACGCUCGGGGAAAGGCAGCAGAGCUUCUGUCAAAGAACAAGACUAUCUUUGCCACGUCUACGUCCGGAGCGACAGU: 0.117 ratio
CUCAGAGAUGUGGCAUAUCAGUAUGUGAAAAAGGGGGCUCGUAUAUUUGUGGAAGGGAAAGUGGACUAUGGUGAAUACAUGGAUAAAAACAAUGUGAGGCGGCAAGCAACAACAAUCAUA: 0.364 ratio
GGACAUCUGUCAAAUUGUUAUGUUCCUGUGAAACAAGUGAACACUCUGAUACACUUCAUCUGCUUGUACAUUUAACUGAUAGAGAAAUGUAAAUAUGAAUAUAUUUACAAUGUGUCACUU: 0.119 ratio
UAAAUCCUGUGCCAGCACUUCGCUCAUAAAGUUUUAAAUUCUGGACCAAUUGUGUUUGUUUCCUGAUUAUUGUAUCCAAUACUUUGCCUAGUAUGUAACUCACUCUUACUGAUAAUAAAA: 0.502 ratio

Set 5 — target: CREBRF, bZIP domain (human); technique: DHFR protein complementation; medium: yeast; relative to: wild-type JUN-FOS pair; direction: higher = stronger binding; quantity: binding fitness
Notes: single substitutions, most at no-binding floor
Starting sequence: JUN, bZIP domain (human); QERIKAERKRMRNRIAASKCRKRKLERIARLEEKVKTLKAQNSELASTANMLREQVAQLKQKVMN; partner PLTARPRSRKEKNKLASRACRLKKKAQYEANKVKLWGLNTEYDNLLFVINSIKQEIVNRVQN
A40F: -1.49 natural log
A29R: -1.38 natural log
A57E: -1.58 natural log
L38V: -1.41 natural log
A40T: -1.29 natural log
V35A: -1.5 natural log
Q41K: -1.5 natural log
V56M: -1.47 natural log
E54S: -1.32 natural log
R53L: -1.48 natural log
M51P: -1.53 natural log
A49S: -1.49 natural log
K39H: -1.42 natural log
Q41E: -1.3 natural log
A29S: -1.4 natural log
A29E: -1.49 natural log
K36N: -1.52 natural log
A40S: -1.52 natural log
E32I: -1.16 natural log
Q58S: -1.6 natural log
T37C: -1.17 natural log
N42F: -1.49 natural log

Other studies, line by line
PhoQ, residues 284 288 289 292 302 303 SLCLSL  fold induction (PhoP, residues 12 14 15 18 19 IFFTR (Escherichia coli, UniProt P23836); Sort-seq, refers to: YFP reporter; E. coli; PhoQ-PhoP variant library, together with: 10 µM Mg2+; relative to: high Mg2+ state, higher = stronger signaling): 2.27

Some of these lines once more (set 5):
A40F: -1.49 natural log
A29R: -1.38 natural log
A57E: -1.58 natural log
L38V: -1.41 natural log
A40T: -1.29 natural log
V35A: -1.5 natural log
Q41K: -1.5 natural log
V56M: -1.47 natural log
E54S: -1.32 natural log
R53L: -1.48 natural log
M51P: -1.53 natural log
A49S: -1.49 natural log
K39H: -1.42 natural log
Q41E: -1.3 natural log
